Results pooled from the literature.
Compare with care: the assays were run in different laboratories. ± marks the error that the study gave.
Proteasome component C5/PSMB5 chymotrypsin-like site: Proteasome component C5/PSMB5, chymotrypsin-like site (Homo sapiens, UniProt P20618+P28074)
Chain of UniProt P20618 (whole entry, looked up): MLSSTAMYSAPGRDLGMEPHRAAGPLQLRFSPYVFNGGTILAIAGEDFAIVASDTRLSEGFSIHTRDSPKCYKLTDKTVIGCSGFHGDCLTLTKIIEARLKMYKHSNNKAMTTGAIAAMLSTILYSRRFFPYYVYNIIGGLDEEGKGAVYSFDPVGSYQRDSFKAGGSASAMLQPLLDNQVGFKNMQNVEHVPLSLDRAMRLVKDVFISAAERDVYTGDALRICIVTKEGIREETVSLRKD
Chain of UniProt P28074 (whole entry, looked up): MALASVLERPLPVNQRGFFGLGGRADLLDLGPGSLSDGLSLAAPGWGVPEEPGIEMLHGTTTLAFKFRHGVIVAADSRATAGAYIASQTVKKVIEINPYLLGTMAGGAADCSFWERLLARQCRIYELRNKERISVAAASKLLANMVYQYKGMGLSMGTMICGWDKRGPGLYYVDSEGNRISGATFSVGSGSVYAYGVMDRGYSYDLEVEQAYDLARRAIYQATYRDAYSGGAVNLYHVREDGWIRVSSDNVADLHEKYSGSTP
ALPL: Alkaline phosphatase, tissue-nonspecific isozyme (ALPL, Homo sapiens, UniProt P05186)
Chain of UniProt P05186 (whole entry, looked up): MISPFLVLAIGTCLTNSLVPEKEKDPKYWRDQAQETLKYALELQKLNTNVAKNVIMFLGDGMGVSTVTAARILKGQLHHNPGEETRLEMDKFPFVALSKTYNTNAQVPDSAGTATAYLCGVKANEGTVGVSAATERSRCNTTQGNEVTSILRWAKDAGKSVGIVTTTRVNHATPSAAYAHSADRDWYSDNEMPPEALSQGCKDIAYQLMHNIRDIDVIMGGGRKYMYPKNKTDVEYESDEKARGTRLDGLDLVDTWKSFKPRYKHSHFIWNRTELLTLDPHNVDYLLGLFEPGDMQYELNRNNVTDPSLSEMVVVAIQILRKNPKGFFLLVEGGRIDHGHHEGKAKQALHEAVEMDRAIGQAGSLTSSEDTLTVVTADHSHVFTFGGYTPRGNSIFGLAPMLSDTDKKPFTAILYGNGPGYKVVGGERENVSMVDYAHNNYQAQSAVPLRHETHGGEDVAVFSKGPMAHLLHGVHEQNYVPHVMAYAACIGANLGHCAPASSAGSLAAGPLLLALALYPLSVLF
Genome polyprotein NS2B-NS3 protease: Genome polyprotein, NS2B-NS3 protease (ZIKV, UniProt A0A024B7W1)
Chain of UniProt A0A024B7W1 (whole entry, looked up): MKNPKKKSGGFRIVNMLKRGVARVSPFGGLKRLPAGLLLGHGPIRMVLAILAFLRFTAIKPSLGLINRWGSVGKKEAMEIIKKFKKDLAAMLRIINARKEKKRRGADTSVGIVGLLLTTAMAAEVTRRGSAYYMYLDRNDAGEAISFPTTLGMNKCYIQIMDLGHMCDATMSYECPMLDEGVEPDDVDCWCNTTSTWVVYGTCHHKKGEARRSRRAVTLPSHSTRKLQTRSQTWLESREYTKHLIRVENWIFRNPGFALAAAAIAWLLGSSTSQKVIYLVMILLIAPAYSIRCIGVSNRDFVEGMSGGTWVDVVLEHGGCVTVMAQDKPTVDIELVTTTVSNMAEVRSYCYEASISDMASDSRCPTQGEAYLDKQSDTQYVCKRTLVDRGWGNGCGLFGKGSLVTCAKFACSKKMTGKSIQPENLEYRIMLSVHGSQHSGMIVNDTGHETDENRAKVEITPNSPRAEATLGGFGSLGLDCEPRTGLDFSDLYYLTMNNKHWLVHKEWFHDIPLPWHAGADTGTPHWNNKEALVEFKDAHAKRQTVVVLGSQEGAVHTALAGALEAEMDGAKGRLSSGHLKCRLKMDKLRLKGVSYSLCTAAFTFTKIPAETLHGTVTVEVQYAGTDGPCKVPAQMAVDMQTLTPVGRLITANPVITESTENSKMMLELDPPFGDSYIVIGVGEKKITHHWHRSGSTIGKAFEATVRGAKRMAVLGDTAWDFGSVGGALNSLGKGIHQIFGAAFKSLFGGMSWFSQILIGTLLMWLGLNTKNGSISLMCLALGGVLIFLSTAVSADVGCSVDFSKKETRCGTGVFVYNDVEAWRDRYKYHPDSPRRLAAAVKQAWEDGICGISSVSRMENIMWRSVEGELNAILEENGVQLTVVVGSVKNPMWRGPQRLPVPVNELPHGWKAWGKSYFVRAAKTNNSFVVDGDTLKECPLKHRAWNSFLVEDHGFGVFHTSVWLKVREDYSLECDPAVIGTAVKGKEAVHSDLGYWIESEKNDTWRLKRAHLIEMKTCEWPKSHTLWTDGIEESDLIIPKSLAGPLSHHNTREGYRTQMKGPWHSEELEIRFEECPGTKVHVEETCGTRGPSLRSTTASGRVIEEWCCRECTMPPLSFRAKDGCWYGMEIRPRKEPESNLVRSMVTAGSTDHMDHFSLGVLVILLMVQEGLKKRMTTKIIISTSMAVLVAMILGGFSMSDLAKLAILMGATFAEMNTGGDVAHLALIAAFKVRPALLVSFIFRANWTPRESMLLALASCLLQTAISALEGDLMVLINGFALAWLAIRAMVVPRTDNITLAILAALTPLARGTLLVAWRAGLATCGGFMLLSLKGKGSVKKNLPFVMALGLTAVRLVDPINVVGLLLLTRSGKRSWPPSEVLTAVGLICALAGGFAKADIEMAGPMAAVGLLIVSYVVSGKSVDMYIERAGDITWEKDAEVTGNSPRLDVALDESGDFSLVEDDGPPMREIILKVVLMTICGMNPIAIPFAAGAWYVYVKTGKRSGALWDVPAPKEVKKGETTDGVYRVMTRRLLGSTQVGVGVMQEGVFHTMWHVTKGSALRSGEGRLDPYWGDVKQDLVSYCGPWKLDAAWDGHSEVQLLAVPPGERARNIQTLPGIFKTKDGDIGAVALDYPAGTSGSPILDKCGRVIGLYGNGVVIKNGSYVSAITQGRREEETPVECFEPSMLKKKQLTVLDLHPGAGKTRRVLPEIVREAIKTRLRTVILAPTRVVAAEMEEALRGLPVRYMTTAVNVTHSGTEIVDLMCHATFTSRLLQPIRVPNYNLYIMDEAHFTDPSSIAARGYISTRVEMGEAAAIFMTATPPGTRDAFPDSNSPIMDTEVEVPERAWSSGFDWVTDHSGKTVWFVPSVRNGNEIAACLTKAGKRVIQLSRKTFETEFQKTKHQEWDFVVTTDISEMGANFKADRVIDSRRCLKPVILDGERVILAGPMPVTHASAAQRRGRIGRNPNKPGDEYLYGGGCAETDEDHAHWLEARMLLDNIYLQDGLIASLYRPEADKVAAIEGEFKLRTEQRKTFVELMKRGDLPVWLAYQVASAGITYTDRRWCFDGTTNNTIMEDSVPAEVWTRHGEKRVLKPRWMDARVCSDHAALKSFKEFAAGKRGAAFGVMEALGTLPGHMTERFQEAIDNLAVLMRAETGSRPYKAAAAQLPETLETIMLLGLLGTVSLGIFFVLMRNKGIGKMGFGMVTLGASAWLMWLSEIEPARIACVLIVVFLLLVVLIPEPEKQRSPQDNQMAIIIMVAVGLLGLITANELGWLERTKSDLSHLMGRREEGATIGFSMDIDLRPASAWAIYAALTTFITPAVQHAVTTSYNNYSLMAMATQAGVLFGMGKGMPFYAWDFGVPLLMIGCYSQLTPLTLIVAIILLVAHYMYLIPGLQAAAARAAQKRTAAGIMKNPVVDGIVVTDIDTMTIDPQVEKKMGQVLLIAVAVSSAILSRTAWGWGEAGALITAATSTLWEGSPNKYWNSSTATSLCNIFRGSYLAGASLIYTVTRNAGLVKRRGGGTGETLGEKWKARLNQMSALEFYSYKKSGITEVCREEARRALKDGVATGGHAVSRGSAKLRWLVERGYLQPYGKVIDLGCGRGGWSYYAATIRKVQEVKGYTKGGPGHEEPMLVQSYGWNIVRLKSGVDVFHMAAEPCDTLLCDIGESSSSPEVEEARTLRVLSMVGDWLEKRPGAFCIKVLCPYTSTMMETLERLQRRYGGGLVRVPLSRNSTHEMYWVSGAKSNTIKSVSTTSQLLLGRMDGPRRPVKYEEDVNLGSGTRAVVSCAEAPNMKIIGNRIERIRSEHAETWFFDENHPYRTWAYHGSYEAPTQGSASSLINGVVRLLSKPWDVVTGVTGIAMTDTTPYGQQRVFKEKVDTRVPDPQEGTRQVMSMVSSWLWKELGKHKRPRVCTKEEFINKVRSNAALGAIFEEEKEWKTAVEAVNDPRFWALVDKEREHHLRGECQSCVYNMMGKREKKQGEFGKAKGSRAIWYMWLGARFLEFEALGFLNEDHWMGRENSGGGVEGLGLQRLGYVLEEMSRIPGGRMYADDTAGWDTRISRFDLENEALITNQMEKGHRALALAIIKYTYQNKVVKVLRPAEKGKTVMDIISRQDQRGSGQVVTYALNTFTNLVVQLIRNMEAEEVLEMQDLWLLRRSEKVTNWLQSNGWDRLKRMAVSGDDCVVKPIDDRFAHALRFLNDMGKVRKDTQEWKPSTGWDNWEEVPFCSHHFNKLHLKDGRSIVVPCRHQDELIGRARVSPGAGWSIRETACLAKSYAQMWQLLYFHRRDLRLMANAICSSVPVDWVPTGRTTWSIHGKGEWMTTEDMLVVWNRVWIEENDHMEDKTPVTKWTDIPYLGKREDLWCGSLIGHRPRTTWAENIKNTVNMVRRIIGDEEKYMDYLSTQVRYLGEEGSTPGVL
Chain of UniProt P08659 (whole entry, looked up): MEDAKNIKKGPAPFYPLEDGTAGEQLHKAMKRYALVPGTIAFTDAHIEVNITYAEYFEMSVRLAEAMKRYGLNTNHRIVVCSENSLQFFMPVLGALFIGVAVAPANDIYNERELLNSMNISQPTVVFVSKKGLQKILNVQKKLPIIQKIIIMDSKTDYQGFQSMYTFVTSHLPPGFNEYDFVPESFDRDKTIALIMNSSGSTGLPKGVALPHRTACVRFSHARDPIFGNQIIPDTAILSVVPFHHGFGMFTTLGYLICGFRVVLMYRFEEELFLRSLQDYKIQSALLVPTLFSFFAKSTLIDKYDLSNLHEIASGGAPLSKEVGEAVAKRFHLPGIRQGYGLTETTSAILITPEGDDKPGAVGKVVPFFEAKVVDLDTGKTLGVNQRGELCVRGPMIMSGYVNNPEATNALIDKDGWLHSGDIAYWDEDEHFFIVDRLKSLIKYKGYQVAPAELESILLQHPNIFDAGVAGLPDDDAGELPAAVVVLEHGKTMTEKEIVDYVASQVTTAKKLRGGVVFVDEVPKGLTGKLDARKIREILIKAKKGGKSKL

| Substance | target | test | test system | conditions | IC50 |
| --- | --- | --- | --- | --- | --- |
| O=S(=O)(O)Oc1ccc(-c2ccc(Cl)cc2)c(Cl)c1 | Sulfotransferase 2A1 (SULT2A1, Homo sapiens, UniProt Q06520) | DHEA sulfation, inhibitor | – | pH 7.4, 37 °C, with: DHEA 1.0 µM | 46 ± 11 µM |
| O=C(O[C@@H]1Cc2c(O)cc(O)cc2O[C@@H]1c1cc(O)c(O)c2c(=O)c(O)cc([C@H]3Oc4cc(O)cc(O)c4C[C@H]3O)cc12)c1cc(O)c(O)c(O)c1 | nuoF (Escherichia coli, UniProt P31979) | deamino-NADH oxidase activity | 1100, membrane vesicles | with: 75 µM deamino-NADH | 8 µM |
| Oc1ccc(-c2sc3cc(O)ccc3c2Oc2ccc(OCCN3CCCCC3)cc2)cc1 | Estrogen receptor beta (ESR2, Homo sapiens, UniProt Q92731) | ligand displacement, radioligand | – | – | 0.0196 µM |
| CC(C)CN(C[C@@H](O)[C@H](Cc1ccccc1)NC(=O)O[C@H]1CO[C@H]2OCC[C@H]21)S(=O)(=O)c1ccc(N)cc1 | Solute carrier organic anion transporter family member 1B3 (SLCO1B3, Homo sapiens, UniProt Q9NPD5) | transport, inhibitor | – | 10 (unit not given), pre-incubation, with: cholecystokinin | 7.6 ± 1.3 µM |
| CCC(=C(c1ccc(OCCN2CCCC2)cc1)c1ccc(OCCN2CCCC2)cc1)c1ccccc1 | Cannabinoid receptor 2 (CNR2, Homo sapiens, UniProt P34972) | inverse agonist | CHO-hCB2 membranes | – | 0.3 ± 0.034 µM |
| CCCC(=O)N[C@@H](C)C(=O)N[C@@H](C(=O)N[C@@H]1C(=O)N[C@@H](CC(C)C)C(=O)N[C@H]2CC[C@@H](O)N(C2=O)[C@@H](Cc2ccccc2)C(=O)N(C)[C@@H](Cc2ccc(O)cc2)C(=O)N[C@@H](C(C)C)C(=O)O[C@H]1C)[C@@H](C)OC(=O)[C@H](C)NC(=O)CCC | Chymotrypsinogen A (Bos taurus, UniProt P00766) | enzyme activity, inhibitor | – | with preincubation | 0.22 µM |
| Fc1ccccc1-c1nc2cc3nc4ccccc4nc3cc2[nH]1 | Genome polyprotein, protease (dengue virus type 2, UniProt P29990) | enzyme activity, inhibitor, fluorescence | – | pH 8.5 | 169 µM |
| CN1C(=O)[C@]23SS[C@@]1(C)C(=O)N2[C@H]1Nc2ccccc2[C@@]1([C@@]12c4ccccc4N[C@@H]1N1C(=O)[C@@]4(C)SS[C@]1(C(=O)N4C)[C@H]2O)[C@@H]3O | Protein arginine N-methyltransferase 1 (PRMT1, Homo sapiens, UniProt Q99873) | methyltransferase activity, inhibitor | – | with: 1 µM [3H]SAM | > 10 µM |
| CC(C)C[C@H](NC(=O)[C@H](CO)NC(=O)[C@H](Cc1c[nH]c2ccccc12)NC(=O)[C@H](C)NC(=O)[C@H](CC(=O)O)NC(=O)[C@H](CC(C)C)NC(=O)CN)C(=O)O | Transcriptional regulator ComR (Streptococcus mutans serotype c, UniProt Q8DWI6) | – | Streptococcus mutans | – | 31 µM |
| CCCCCCCCCCCCCCCC(=O)N[C@@H](CCC(=O)NCCCC[C@H](NC(=O)[C@H](Cc1ccc(O)cc1)NC(=O)[C@H](CC(=O)O)NC(=O)[C@H](CO)NC(=O)[C@@H](NC(=O)[C@H](Cc1ccccc1)NC(=O)[C@@H](NC(=O)CNC(=O)[C@@H](N)CCC(=O)O)[C@@H](C)O)[C@@H](C)CC)C(=O)N[C@H](C(=O)N[C@@H](C)C(=O)N[C@@H](CC(C)C)C(=O)N[C@@H](CC(=O)O)C(=O)N[C@@H](CCCCN)C(=O)N[C@H](C(=O)N[C@@H](CCCNC(=N)N)C(=O)N[C@@H](CCC(N)=O)C(=O)N[C@@H](CCC(N)=O)C(=O)N[C@@H](CCC(=O)O)C(=O)N[C@@H](Cc1ccccc1)C(=O)N[C@H](C(=O)N[C@@H](CC(N)=O)C(=O)N[C@@H](Cc1c[nH]c2ccccc12)C(=O)N[C@@H](CC(C)C)C(=O)N[C@@H](CC(C)C)C(=O)N[C@@H](C)C(=O)N[C@@H](CCC(N)=O)C(=O)N[C@@H](CCCCN)C(N)=O)C(C)C)[C@@H](C)CC)[C@@H](C)CC)C(=O)O | Gastric inhibitory polypeptide receptor (Mus musculus, UniProt Q0P543) | cAMP response, antagonist, CRE-luciferase reporter | BHK | 3 h, 37 °C, with: 50 pM GIP | 0.0351 µM |
| CSc1scc2c1C(=O)C(=CN(C)C)CC2 | DNA polymerase processivity factor, with UL54 polymerase (UL44, Human cytomegalovirus, UniProt P16790) | P54-UL44 interaction, inhibitor, fluorescence polarization | – | 10 min preincubation | ~20 µM |
| CCCC(C(=O)O)[C@@H]1CCN[C@H]1C(=O)O (relative stereo) | AMPA receptor, rat | binding | cortical synaptosomes | with: [3H]-AMPA | > 100 µM |
| CC(=O)Nc1ccc(O)cn1 | Seed linoleate 13S-lipoxygenase-1 (Glycine max, UniProt P08170) | enzyme activity, inhibitor | – | pH 9.2 | 1620 µM |
| CC(=O)c1cccc(NC(=O)C(=O)[C@H](CC(C)C)NC(=O)[C@H](Cc2c[nH]c3ccccc23)NC(=O)[C@H](CC(C)C)NC(=O)OCc2ccccc2)c1 | Proteasome component C5/PSMB5 chymotrypsin-like site | enzyme activity in cells, inhibitor | – | – | 0.0295 µM |
| O=C1C2CC=CCC2C(=O)N1c1n[nH]c(Cc2ccccc2)n1 (stereo not drawn) | ALPL | enzyme activity, inhibitor, luminescence | – | with: 300 µM CDP-star, 100 mM DEA | 0.346 ± 0.007 µM |
| O=C(O)c1cc(O)c(O)c(O)c1 | DNA oxidative demethylase ALKBH2 (ALKBH2, Homo sapiens, UniProt Q6NS38) | 1-methyladenine repair, inhibitor, HPLC | – | 1 h, 37 °C, with: ssDNA 16mer 5 µM | 30.9 µM |
| CC(C)C[C@H](NC(=O)OCc1ccccc1)C(=O)N[C@@H](CC(C)C)C(=O)N[C@@H](CC(C)C)C(=O)C(=O)Nc1ccccc1-c1ccccc1 | Proteasome component C5/PSMB5 chymotrypsin-like site | enzyme activity in cells, inhibitor | – | – | 4.7 µM |
| CC1(NCc2ccccc2)CC1 | Flavin-dependent monooxygenase (tet(50), Unknown prokaryotic organism, UniProt A0A059WYP6) | TC oxidation, inhibitor | – | blue light, 8 min preincubation | 390 ± 30 µM |

| Substance | target | test | test system | conditions | IC50 |
| --- | --- | --- | --- | --- | --- |
| Phoxim oxon | rat liver carboxylesterase | enzyme activity, inhibitor | rat, postnatal day 70, liver homogenate | with: p-nitrophenyl valerate | 0.0004 µM |
| CC(C)C[C@H](NC(=O)CNC(=O)[C@H](CC(C)C)NC(=O)[C@H](CC(C)C)NC(=O)[C@@H](N)Cc1ccccc1)C(=O)N[C@@H](CC(C)C)C(=O)N[C@H](C(=O)N[C@@H](Cc1c[nH]cn1)C(=O)N[C@H](C(=O)O)C(C)C)C(C)C | HLA class I histocompatibility antigen, A alpha chain, allele A*02:03 (Homo sapiens, UniProt P04439) | peptide binding, radiolabelled peptide competition | – | with: radiolabelled standard peptide | 0.0046 µM |
| O=C([O-])c1ccccc1-c1c2cc(Br)c(=O)cc-2oc2[c]([Hg+])c([O-])c(Br)cc12.[Na+].[Na+].[OH-] | Dual specificity protein phosphatase 5 (Homo sapiens, UniProt Q16690) | phosphatase activity | – | 0 min, without DTT, initial velocity, with: pNPP | 16.1 ± 0.7 µM |
| Cc1cc(O)cc(C)c1-c1ccc(-c2c(C)cc(O)cc2C)[se]1 | Estrogen receptor (ESR1, Homo sapiens, UniProt P03372) | antagonist | HEK293T | with: estradiol 10 nM | 0.425 µM |
| COc1ccc(C)cc1S(=O)(=O)Nc1cccnc1 | ALPL | enzyme activity, inhibitor, luminescence | – | with: CDP-star substrate, 100 mM DEA | 1.78 µM |
| CCCCC/C=C\C/C=C\C/C=C\C/C=C\CCCCN1C(=O)C=CC1=O | Monoglyceride lipase (MGLL, Homo sapiens, UniProt Q99685, C242A) | enzyme activity, inhibitor | – | with: AHMMCE substrate | 6.4 µM |
| CN=c1scc(-c2ccccc2F)n1/N=C/c1ccc[nH]1 | Luciferin 4-monooxygenase (Photinus pyralis, UniProt P08659) | enzyme activity, inhibitor | purified enzyme | with: ATP and D-luciferin at Km (10 µM) | 0.04 ± 0.01 µM |
| COc1cc(/C=C(\C#N)C(=O)Nc2nnc(C(F)(F)F)s2)ccc1OCc1ccc(C(F)(F)F)cc1C(F)(F)F | PGC-1α/ERRα, human | reporter gene, antagonist, luciferase reporter | – | – | 3.97 ± 0.29 µM |
| NCc1ccc(-c2ncc(OCC3CCNCC3)nc2-c2ccc(C(=O)N3CCOCC3)cc2)cc1 | Genome polyprotein NS2B-NS3 protease | inhibitor | Zika virus | – | > 10 µM |
| COc1cc([C@@H]2c3cc4c(cc3[C@@H](O)[C@H]3COC(=O)[C@H]23)OCO4)cc(OC)c1OC | tubulin alpha/beta (Leishmania infantum, UniProt A0A381MCS3+A4HTR0) | tubulin polymerization, inhibitor | – | 37 °C | 2.7 ± 0.1 µM |
| Oc1cc(Cl)c(-c2cc(Cl)ccc2Cl)cc1Cl | Sulfotransferase 1E1 (SULT1E1, Homo sapiens, UniProt P49888) | enzyme activity, inhibitor, radiometric | – | pH 7.4 | 0.019 µM |
| CN(C)CCCC1(c2ccc(F)cc2)OCc2cc(C#N)ccc21 (stereo not drawn) | Dopamine transporter (Schistosoma mansoni, UniProt E9LD23) | – | – | – | 50.5 ± 4.7 µM |
| COc1ccc(C[C@H](NC(=O)[C@H](C)NC(=O)c2ccc(-c3ccc(C(C)=O)cc3)o2)C(=O)N[C@@H](CC(C)C)C(=O)C(=O)Nc2ccccc2)cc1 | Proteasome component C5/PSMB5 chymotrypsin-like site | enzyme activity in cells, inhibitor | – | – | 0.0507 µM |
| CCN(CC)C(C)CN1c2ccccc2Sc2ccccc21 (stereo not drawn) | Dugesia japonica cholinesterase | enzyme activity | planarian homogenate | 5 min, with: butyrylthiocholine 0.1 mM | 91 ± 0.00021 µM |
| CCCCCc1cc(O)cc(OC(=O)c2c(O)cc(O)cc2CCCCC)c1 | DNA topoisomerase 1 (topA, Escherichia coli, UniProt P06612) | enzyme activity, inhibitor | – | range shared with DNA gyrase | 250 to 500 µM |
| NCc1ccc(-c2ncc(OCC3CCNCC3)nc2-c2ccc(-c3cn[nH]c3)cc2)cc1 | Genome polyprotein NS2B-NS3 protease | inhibitor | Zika virus | – | 0.71 µM |
| CCCCN1C(=O)C(C=CC=CC=C2C(=O)N(c3ccc(S(=O)(=O)O)cc3)N=C2C)C(=O)N(CCCC)C1=O | SLC4A1 (Homo sapiens, UniProt P02730) | chloride exchange, 36Cl flux | erythrocytes | 0 °C, equilibrium binding, with: 5 mM chloride both sides | 0.053 ± 0.004 µM |
| CC[C@H](C)[C@H](N)C(=O)N[C@@H](CO)C(=O)N[C@@H](CCC(N)=O)C(=O)N[C@H](C(=O)N[C@@H](CC(N)=O)C(=O)N[C@@H](CCC(=O)O)C(=O)N[C@@H](CCCCN)C(=O)N[C@H](C(=O)N[C@@H](CC(N)=O)C(=O)N[C@@H](CCC(N)=O)C(=O)N[C@@H](CO)C(=O)N[C@@H](CC(C)C)C(=O)N[C@@H](C)C(=O)N[C@@H](Cc1ccccc1)C(=O)N[C@H](C(=O)N[C@@H](CCCNC(=N)N)C(=O)N[C@@H](CCCCN)C(=O)N[C@@H](CO)C(=O)N[C@@H](CC(=O)O)C(=O)N[C@@H](CCC(=O)O)C(=O)O)[C@@H](C)CC)[C@@H](C)CC)C(C)C | hRSV fusion protein 5-helix bundle | binding, fluorescence polarization | – | with: Fl-C35 tracer 5 nM | 36 ± 1 µM |

For quick reference, copied from above:
| Substance | target | test | test system | conditions | IC50 |
| --- | --- | --- | --- | --- | --- |
| CCCC(C(=O)O)[C@@H]1CCN[C@H]1C(=O)O (relative stereo) | AMPA receptor, rat | binding | cortical synaptosomes | with: [3H]-AMPA | > 100 µM |
| CCC(=C(c1ccc(OCCN2CCCC2)cc1)c1ccc(OCCN2CCCC2)cc1)c1ccccc1 | Cannabinoid receptor 2 (CNR2, Homo sapiens, UniProt P34972) | inverse agonist | CHO-hCB2 membranes | – | 0.3 ± 0.034 µM |
